Published values collected from several papers.
Every numbered part comes from another study and shows a few of its results, in no order.

Study 1
Target: Replicase polyprotein 1ab, nsp13 helicase (rep, Severe acute respiratory syndrome coronavirus 2, UniProt P0DTD1)
Action: inhibitor
Concentration: 20 µM
`C[C@H](CSC(=O)c1ccccc1)C(=O)N1C[C@@H](Sc2ccccc2)C[C@H]1C(=O)O` gave an inhibition of 4.69%.
The inhibition of `CC(C)OC(=O)C1=CN(C(=O)c2ccc(F)c(F)c2)CC(C)(C)c2c1[nH]c1ccccc21` is reported as 1.47%.
`Cc1ccc(=O)n(-c2ccc(O)cc2)c1` gave an inhibition of 5.34%.
`COc1ccc2cc(CCC(C)=O)ccc2c1` gave an inhibition of 0.57%.
For `C[C@H]1CN(Cc2ccc(CC(=O)N3CCC(Nc4cccc(F)c4)CC3)cc2)CCN1`, the inhibition was 0.39%.
For `CN1CCC2=C(C1)C(c1ccccc1)c1ccccc12` (stereo not shown), the inhibition was 40.1%.
`O=C(Nc1ccccc1C(=O)Nc1ccc(CCO)cc1)c1ccc([N+](=O)[O-])cc1` has an inhibition of 12.7%.
`CCOc1cc(OCC)c(C(=O)CCC(=O)O)cc1OCC` gave an inhibition of -5.36%.
`O[C@@H]1CO[C@H]2[C@@H]1OC[C@@H]2O` has an inhibition of 2%.
`CC(=O)NC[C@H]1CN(c2ccc(N3CCSCC3)c(F)c2)C(=O)O1` gave an inhibition of 0.41%.
For `CC(C)C[C@H](NC(=O)CNC(=O)c1cc(Cl)ccc1Cl)B(O)O`, the inhibition was 7.12%.
The inhibition of `NCCCC[C@H](NC(=O)[C@@H](Cc1cc(Br)c(O)c(Br)c1)NC(=O)N1CCC(N2Cc3ccccc3NC2=O)CC1)C(=O)N1CCN(c2ccncc2)CC1` is reported as 11.2%.
The inhibition of `COc1ccc(CN2CCN(C(c3ccc(F)cc3)c3ccc(F)cc3)CC2)c(OC)c1OC` is reported as 0.79%.
For `CC1=C(CC(=O)O)c2cc(F)ccc2/C1=C\c1ccc(S(C)(=O)=O)cc1`, the inhibition was 54.8%.
`CC(C)(C)CCN1C[C@@H]2C(CNC(=O)c3cc(Cl)cc(Cl)c3)[C@@H]2C1` (stereo partly shown) has an inhibition of 7.42%.
For `CC[C@@H](CO)NC(=O)[C@@H]1C=C2c3cccc4c3c(cn4C)C[C@H]2N(C)C1`, the inhibition was 29.2%.
The inhibition of `O=C1C(Cl)=C(NCCN2CCOCC2)C(=O)c2ncccc21` is reported as 12%.
`NCCCC[C@H](N)C(=O)O` gave an inhibition of 5.68%.
The inhibition of `Cc1cccc(Nc2ccncc2S(=O)(=O)NC(=O)NC(C)C)c1` is reported as 7.82%.
For `CCCN(CCC)C(=O)Cc1c(-c2ccc(Cl)cc2)nc2ccc(Cl)cn12`, the inhibition was 2.35%.
`C=CCN(C)CCCCCCOc1ccc(C(=O)c2ccc(Br)cc2)c(F)c1` gave an inhibition of 3.8%.
For `Cc1ccc(/N=C/N(C)/C=N/c2ccc(C)cc2C)c(C)c1`, the inhibition was 2.59%.
The inhibition of `CCN(CC)C(=O)/C(C#N)=C/c1cc(O)c(O)c([N+](=O)[O-])c1` is reported as 60%.
`O=C(c1cccc(Cl)c1F)N1CCN(Cc2cccc(Nc3nccs3)n2)CC1` gave an inhibition of 1.68%.
The inhibition of `COC(=O)Nc1nc2cc(C(=O)c3ccc(F)cc3)ccc2[nH]1` is reported as 6.7%.

Study 2
Target: Interferon regulatory factor 5, full length, phosphomimetic (IRF5, Homo sapiens, UniProt Q13568-2, residues 1-514, S451D/S453D/S456D/S462D)
Technique: protein-binding microarray
Form: double-stranded DNA, one strand shown
Matrix: in vitro
Concentration: 940 nM top
Setting: 60-bp whole probe
Added: salmon DNA 0.4 mg/ml
Relative to: random background probes
Direction: higher = stronger binding
Constant ends, left off below: GCCTAGCAC … GTCTTGATTCGCTTGACGCTGCTG
For `GACGGTACCCTTCTCCTGACGTGCTAG`, “fitted relative affinity” read 0.0923 z-score.
`CTCTGGTTCTTGCTTGGTGTCGTGCTA`: “fitted relative affinity” -0.144 z-score.
For `TGTAATGATGTAGGCAAATGGTGCTAG`, “fitted relative affinity” read -0.598 z-score.
`GACGGTTTCGGGACTGGGGTCGTGCTA`: “fitted relative affinity” 7.72 z-score.
`CCTCTGCTCCTCTTTTTTTGGGTGCTA` — result for “fitted relative affinity”: 1.08 z-score.
`GACGTTTTCAGTTCCGAGACGTGCTAG`: “fitted relative affinity” 1.36 z-score.
Under “fitted relative affinity”, `TTAGGTATCCTTTTCCTTTTGTGCTAG` is recorded as 0.837 z-score.
Under “fitted relative affinity”, `TCATTTTAAGTTCTCTGACTGTGCTAG` is recorded as 0.343 z-score.

Study 3
Target: Sal-like protein 4, full length isoform A (SALL4, Homo sapiens, UniProt Q9UJQ4, residues 1-1053)
Sequence of UniProt Q9UJQ4 (whole entry, looked up): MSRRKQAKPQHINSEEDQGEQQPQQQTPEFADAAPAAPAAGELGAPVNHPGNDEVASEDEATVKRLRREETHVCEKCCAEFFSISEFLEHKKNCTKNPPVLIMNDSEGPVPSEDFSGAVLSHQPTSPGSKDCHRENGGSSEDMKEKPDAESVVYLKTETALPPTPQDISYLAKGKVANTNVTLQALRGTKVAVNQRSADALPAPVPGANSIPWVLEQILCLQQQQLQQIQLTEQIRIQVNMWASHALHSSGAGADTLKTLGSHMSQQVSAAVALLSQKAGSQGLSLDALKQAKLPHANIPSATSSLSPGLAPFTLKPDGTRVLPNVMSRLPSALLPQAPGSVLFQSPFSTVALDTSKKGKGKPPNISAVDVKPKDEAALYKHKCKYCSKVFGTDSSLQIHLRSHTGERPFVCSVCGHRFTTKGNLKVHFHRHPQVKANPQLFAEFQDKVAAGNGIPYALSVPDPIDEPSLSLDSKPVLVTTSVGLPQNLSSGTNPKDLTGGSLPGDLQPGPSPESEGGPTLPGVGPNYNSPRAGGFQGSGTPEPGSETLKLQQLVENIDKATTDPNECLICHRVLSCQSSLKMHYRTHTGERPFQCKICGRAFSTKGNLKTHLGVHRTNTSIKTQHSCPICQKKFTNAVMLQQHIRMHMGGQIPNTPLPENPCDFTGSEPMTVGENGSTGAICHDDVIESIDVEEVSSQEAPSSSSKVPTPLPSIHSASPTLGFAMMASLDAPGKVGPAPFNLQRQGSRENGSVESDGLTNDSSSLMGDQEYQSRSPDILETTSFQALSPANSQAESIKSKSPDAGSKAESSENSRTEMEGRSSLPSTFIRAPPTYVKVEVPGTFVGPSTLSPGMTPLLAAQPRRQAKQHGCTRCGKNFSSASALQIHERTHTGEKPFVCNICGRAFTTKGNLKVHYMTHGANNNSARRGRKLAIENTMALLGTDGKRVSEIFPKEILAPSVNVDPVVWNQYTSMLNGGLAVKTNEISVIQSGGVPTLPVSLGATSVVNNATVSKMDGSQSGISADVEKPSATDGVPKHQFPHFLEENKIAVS
Technique: universal PBM
Form: double-stranded DNA, one strand shown
Matrix: in vitro
Concentration: 600 nM
Setting: 8-mer, flanks averaged, mean of replicates
Direction: higher = stronger binding
`ATTTGCTG` has an E-score of 0.223.
`GGGAAACC` has an E-score of -0.168.
`CTGAGTAA` gave an E-score of 0.123.
`ACGTCCGA` has an E-score of -0.262.
The E-score of `AAGGAGGA` is reported as 0.0892.
With `AAATGGAT` the E-score was 0.189.
The E-score of `ATTCTGAG` is reported as 0.229.
`AGTTGCTG` gave an E-score of -0.155.

Study 4
Target: Histone acetyltransferase KAT6A, winged helix 1, GST fusion (KAT6A, Homo sapiens, UniProt Q92794, residues 1-85)
Technique: protein binding microarray
Form: double-stranded DNA, one strand shown
Matrix: in vitro
Concentration: not given
Setting: 8-mer, flanks averaged, mean of 2 arrays, mostly near background
Relative to: not given
Direction: higher = stronger binding
Target sequence (chain): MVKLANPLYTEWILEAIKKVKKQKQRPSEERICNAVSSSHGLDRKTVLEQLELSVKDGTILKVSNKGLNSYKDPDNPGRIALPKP
For `AGGATCCC`, the E-score was 0.0229.
For `AGTCTAGA`, the E-score was -0.22.
`CAGAGCCC` has an E-score of -0.116.
For `ATACGGCC`, the E-score was 0.365.
`TCCGCTCA` gave an E-score of -0.0294.
`ATGGCTTC` has an E-score of -0.197.
`GTAACCTA` has an E-score of 0.167.
`CAATTTGG` has an E-score of -0.203.

Study 5
Target: Replicase polyprotein 1ab, main protease (rep, Severe acute respiratory syndrome coronavirus 2, UniProt P0DTD1)
Read-out: enzyme activity
Action: inhibitor
Concentration: 20 µM
Setting: primary screen
`CN(C)[C@@H]1C(=O)C(C(N)=O)C(=O)[C@@]2(O)C(=O)C3C(=O)c4c(O)cccc4[C@@](C)(O)[C@H]3[C@H](O)[C@@H]12` (stereo partly shown) has an inhibition of 59.6%.
The inhibition of `CC(C)c1cc(CNc2nc(Nc3cc(C4CC4)[nH]n3)cc(N3CCN(C)CC3)n2)on1` is reported as 44.8%.
`CN(C)C(=S)SSC(=S)N(C)C` gave an inhibition of 99.9%.

Excerpt of the above (study 1):
The inhibition of `COC(=O)Nc1nc2cc(C(=O)c3ccc(F)cc3)ccc2[nH]1` is reported as 6.7%.
`CC(=O)NC[C@H]1CN(c2ccc(N3CCSCC3)c(F)c2)C(=O)O1` gave an inhibition of 0.41%.
The inhibition of `COc1ccc(CN2CCN(C(c3ccc(F)cc3)c3ccc(F)cc3)CC2)c(OC)c1OC` is reported as 0.79%.
The inhibition of `CC(C)OC(=O)C1=CN(C(=O)c2ccc(F)c(F)c2)CC(C)(C)c2c1[nH]c1ccccc21` is reported as 1.47%.
For `C[C@H]1CN(Cc2ccc(CC(=O)N3CCC(Nc4cccc(F)c4)CC3)cc2)CCN1`, the inhibition was 0.39%.
